Assay results of several laboratories.
Protocols differ between the studies behind these lines. Numbers after ± are the reported error. Bridge positions count the residues as written; N and C are the ends. Non-standard residues stand in square brackets, D forms with d. Square brackets hold non-standard residues; d marks the D form. Ends that are not written are not given here. No end group written: not given here. * marks the point of attachment. *: point of attachment.
PLAT: PLAT (Homo sapiens, UniProt P00750)
UniProt P00750, sequence (whole entry, looked up): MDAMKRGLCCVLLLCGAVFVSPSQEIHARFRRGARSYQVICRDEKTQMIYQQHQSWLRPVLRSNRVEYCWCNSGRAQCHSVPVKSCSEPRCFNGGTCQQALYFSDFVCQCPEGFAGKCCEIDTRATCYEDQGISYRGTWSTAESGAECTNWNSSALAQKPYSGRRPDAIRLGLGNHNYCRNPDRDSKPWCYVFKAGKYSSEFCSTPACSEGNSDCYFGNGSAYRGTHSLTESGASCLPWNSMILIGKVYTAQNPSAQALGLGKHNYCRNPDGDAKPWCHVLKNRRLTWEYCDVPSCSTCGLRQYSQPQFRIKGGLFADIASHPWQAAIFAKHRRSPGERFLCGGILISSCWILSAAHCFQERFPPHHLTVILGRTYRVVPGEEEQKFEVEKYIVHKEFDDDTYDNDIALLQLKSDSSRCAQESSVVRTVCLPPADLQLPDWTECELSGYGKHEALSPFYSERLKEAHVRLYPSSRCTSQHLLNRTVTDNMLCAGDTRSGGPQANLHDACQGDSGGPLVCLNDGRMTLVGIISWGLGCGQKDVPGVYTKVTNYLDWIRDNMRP
B1: acrA (Escherichia coli, UniProt P0AE06); N-terminal lipid at C25; chain CDDKQAQQGGQQMPAVGVVTVKTEPLQITTELPGRTSAYRIAEVRPQVSGIILKRNFKEGSDIEAGVSLYQIDPATYQATYDSAKGDLAKAQAAANIAQLTVNRYQKLLGTQYISKQEYDQALADAQQANAAVTAAKAAVETARINLAYTKVTSPISGRIGKSNVTEGALVQNGQATALATVQQLDPIYVDVTQSSNDFLRLKQELANGTLKQENGKAKVSLITSDGIKFPQDGTLEFSDVTVDQTTGSITLRAIFPNPDHTLLPGMFVRARLEEGLNPNAILVPQQGVTRTPRGDATVLVVGADDKVETRPIVASQAIGDKWLVTEGLKAGDRVVISGLQKVRPGVQVKAQEVTADNNQQAASGAQPEQSKS
B2: FGL1 fibrinogen-like domain 58-312 (Homo sapiens, UniProt Q08830); sequence looked up; chain NEVQFLDKGDENTVIDLGSKRQYADCSEIFNDGYKLSGFYKIKPLQSPAEFSVYCDMSDGGGWTVIQRRSDGSENFNRGWKDYENGFGNFVQKHGEYWLGNKNLHFLTTQEDYTLKIDLADFEKNSRYAQYKNFKVGDEKNFYELNIGEYSGTAGDSLAGNFHPEVQWWASHQRMKFSTWDRDHDNYEGNCAEEDQSGWWFNRCHSANLNGVYYSGPYTAKTDNGIVWYTWHGWWYSLKSVVMKIRPNDFIPNVI
B3: traR 1-73 (Escherichia coli, UniProt P41065); chain MSDEADEAYSVTEQLTMTGINRIRQKINAHGIPVYLCEACGNPIPEARRKIFPGVTLCVECQAYQERQRKHYA
UniProt O75762, sequence (whole entry, looked up): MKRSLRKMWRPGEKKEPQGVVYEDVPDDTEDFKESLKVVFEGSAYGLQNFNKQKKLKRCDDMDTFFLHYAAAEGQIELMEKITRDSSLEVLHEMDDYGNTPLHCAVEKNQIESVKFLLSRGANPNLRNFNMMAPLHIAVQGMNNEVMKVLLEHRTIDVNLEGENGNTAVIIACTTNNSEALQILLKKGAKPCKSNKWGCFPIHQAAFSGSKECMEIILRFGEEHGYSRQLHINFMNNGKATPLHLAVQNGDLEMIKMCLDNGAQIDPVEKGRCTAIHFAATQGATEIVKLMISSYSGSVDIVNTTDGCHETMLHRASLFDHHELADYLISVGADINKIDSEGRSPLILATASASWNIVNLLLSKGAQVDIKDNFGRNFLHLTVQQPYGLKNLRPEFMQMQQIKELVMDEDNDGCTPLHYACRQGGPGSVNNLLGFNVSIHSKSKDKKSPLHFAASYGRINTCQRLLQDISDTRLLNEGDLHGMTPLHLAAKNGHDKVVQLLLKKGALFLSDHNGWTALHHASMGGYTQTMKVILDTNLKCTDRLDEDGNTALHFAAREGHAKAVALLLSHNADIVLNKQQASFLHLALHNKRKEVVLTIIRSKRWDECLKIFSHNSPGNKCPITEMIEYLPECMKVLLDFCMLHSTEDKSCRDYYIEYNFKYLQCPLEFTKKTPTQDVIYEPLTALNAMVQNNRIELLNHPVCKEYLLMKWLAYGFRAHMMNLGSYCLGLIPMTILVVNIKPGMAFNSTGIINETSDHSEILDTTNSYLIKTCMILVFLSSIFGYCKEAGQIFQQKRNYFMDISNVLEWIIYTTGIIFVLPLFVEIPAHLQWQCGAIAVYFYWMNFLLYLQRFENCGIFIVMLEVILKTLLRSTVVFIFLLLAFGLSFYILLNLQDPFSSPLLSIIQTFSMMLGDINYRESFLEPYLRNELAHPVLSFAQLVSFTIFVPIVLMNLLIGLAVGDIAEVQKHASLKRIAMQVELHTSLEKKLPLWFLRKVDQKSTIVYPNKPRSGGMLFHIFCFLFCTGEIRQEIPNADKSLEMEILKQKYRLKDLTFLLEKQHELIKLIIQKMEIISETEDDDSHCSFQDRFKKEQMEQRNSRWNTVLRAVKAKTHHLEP
UniProt P29590, sequence (whole entry, unmodified, looked up): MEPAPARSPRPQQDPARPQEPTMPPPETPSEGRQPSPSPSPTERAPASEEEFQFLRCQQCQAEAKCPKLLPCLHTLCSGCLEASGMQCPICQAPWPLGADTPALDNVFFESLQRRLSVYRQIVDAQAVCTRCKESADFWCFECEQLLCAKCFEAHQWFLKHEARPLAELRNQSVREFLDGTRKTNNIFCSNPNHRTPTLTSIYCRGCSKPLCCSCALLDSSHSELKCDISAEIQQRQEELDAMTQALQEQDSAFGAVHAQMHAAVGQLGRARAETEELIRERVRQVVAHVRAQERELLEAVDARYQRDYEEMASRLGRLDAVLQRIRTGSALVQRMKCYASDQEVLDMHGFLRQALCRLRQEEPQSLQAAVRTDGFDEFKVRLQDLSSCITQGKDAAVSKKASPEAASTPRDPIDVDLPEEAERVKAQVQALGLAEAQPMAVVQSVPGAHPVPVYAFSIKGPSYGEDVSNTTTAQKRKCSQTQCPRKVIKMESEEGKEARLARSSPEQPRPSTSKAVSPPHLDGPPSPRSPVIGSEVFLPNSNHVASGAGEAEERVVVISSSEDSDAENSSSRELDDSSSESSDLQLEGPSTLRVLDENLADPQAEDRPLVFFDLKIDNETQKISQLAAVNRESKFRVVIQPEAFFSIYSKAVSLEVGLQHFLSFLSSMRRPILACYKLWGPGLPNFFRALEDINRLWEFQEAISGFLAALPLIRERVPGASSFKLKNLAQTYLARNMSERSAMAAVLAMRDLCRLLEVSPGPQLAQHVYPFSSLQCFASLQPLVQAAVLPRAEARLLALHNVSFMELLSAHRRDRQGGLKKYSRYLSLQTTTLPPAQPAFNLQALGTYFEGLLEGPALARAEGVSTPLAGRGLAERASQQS
UniProt P31224, sequence (whole entry, unmodified, looked up): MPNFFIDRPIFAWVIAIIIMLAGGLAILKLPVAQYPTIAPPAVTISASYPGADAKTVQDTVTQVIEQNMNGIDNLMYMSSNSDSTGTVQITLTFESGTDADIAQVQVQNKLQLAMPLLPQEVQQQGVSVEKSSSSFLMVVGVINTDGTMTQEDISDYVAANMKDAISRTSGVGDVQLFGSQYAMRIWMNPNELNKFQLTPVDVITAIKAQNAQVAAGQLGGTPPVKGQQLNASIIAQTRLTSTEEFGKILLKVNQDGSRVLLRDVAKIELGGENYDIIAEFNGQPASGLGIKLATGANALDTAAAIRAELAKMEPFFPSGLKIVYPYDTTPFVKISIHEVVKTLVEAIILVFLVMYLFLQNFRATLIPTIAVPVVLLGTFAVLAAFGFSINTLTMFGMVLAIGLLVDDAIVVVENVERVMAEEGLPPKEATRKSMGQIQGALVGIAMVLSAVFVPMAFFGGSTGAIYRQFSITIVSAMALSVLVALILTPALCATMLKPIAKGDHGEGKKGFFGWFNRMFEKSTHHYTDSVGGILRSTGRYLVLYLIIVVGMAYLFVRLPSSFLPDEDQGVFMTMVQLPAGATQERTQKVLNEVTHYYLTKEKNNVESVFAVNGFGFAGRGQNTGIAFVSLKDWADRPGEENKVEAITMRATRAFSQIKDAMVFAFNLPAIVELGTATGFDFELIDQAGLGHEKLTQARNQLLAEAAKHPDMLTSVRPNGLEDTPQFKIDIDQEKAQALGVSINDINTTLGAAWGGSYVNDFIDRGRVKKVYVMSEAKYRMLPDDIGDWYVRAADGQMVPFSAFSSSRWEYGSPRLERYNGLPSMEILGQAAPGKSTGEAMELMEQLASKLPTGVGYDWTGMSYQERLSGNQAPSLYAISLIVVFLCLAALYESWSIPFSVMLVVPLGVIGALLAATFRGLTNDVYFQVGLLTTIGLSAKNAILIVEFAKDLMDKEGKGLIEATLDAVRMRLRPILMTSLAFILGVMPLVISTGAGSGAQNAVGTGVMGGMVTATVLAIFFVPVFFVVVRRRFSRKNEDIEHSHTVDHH
UniProt Q14149, sequence (whole entry, looked up): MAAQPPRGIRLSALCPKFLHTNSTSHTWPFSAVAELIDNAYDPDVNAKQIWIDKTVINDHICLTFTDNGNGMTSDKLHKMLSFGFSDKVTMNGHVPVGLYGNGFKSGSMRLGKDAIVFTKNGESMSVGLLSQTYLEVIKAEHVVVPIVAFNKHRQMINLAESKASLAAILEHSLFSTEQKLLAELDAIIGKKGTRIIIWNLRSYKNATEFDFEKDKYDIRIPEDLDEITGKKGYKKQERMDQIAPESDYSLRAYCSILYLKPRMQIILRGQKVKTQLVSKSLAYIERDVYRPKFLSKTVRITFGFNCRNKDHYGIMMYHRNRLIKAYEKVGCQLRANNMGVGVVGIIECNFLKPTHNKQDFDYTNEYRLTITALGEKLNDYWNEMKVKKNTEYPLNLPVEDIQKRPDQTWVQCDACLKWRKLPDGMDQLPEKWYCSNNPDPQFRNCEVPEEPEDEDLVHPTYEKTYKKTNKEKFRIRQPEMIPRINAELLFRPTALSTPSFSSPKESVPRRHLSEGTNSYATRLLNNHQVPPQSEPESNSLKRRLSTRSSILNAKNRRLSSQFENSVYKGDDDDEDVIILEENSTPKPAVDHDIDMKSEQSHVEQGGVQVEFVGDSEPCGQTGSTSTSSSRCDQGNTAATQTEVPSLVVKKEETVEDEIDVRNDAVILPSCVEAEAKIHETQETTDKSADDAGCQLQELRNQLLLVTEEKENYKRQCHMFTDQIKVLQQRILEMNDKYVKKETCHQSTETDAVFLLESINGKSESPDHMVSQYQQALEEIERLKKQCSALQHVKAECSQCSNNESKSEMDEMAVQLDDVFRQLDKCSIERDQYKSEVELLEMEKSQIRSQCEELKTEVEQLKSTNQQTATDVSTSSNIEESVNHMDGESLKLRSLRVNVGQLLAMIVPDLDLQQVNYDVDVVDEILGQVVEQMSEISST

Molecule	target or system	assay	test system	setting	measurement	result
ARTKQTARKSTGGKAPRK (histone H3 residues 1-18)	KDM4A 890-1031 (Homo sapiens, UniProt O75164-1)	displacement of biotinylated peptide, competitor, AlphaScreen	peptide		EC50	89 µM
histone H3 fragment, K36me3 (sequence not shown)	MORF4L1 fragment (Homo sapiens)	NMR titration		pH 7.5, 25 °C	Kd	580 ± 180 µM
DLG1 PDZ2 domain (Homo sapiens)	E6 residues 80-151 (Human papillomavirus type 16)	ITC		pH 6.50, 20 °C	molecule per partner	1
Biotin-ATAPRIDDEIPPPLPVRTPESFIVVEEAGEFSPNVPKSLS (N-biotin; Biotin = O=C1N[C@H]2[C@H](CS[C@H]2CCCCC(=O)*)N1)	PTPN22 (Homo sapiens, UniProt Q9Y2R2)	enzyme activity	peptide	50 nM, pH 6.0, together with: DiFMUP	kcat	8.2 ± 0.3 s⁻¹
B1 (acrA)	acrB C493S/C887S/S1043C (Escherichia coli, UniProt P31224)	SPR		two-state model, forward second step	k2	0.0121 M⁻¹ s⁻¹
Biotin-GSGSASPQQAKYCYEQCNVNKVPFDQCYQMCSPLERS (WaTx; disulfide 13-31, 17-27; not fully specified; Biotin = O=C1N[C@H]2[C@H](CS[C@H]2CCCCC(=O)*)N1)	TRPA1 (Homo sapiens, UniProt O75762)	single channel current, inside-out patch	peptide, HEK	1 µM, after washout, Vh -40 mV, together with: iodoacetamide 100 µM	mean open dwell time	2.8 ± 0.6 ms
Glra3/Glrb, Dendra2 fusion (Rattus norvegicus)	Gphn, pS270 (Rattus norvegicus)	single particle tracking		synapses, together with: forskolin	diffusion coefficient	0.0058 µm^2/s
ARTKQTARKSTG (Histone H3.1 2-13 (Homo sapiens, UniProt P68431); sequence looked up)	MORC3 401-455 (Homo sapiens, UniProt Q14149)	fluorescence titration	peptide		Kd	7 µM
RmS-17, glycosylated (Rhipicephalus microplus)	PLAT	chromogenic substrate hydrolysis, inhibitor		1 µM	protease inhibition	< 20%
protein (Streptomyces exfoliatus, UniProt O87916)	PBP2a residues 41-end (Staphylococcus aureus)	SPR			koff	0.000262 s⁻¹
RmS-3, glycosylated (Rhipicephalus microplus)	PLAT	chromogenic substrate hydrolysis, inhibitor		1 µM	protease inhibition	< 20%
B2	LAG3 extracellular domain M171I (Homo sapiens)	SPR		20 °C	Kd	1.1 µM
{FITC}-GFID[pS]D[pT]DVEEE-NH2 (peptide; N-terminal FITC, pS5, pT7, C-terminal amide; FITC = O=C1OC2(c3ccc(O)cc3Oc3cc(O)ccc32)c2ccc(NC(=S)*)cc21; pS = N[C@@H](COP(=O)(O)O)C(=O)O; pT = C[C@@H](OP(=O)(O)O)[C@H](N)C(=O)O)	TOPBP1 641-746 K704A (Homo sapiens, UniProt Q92547)	fluorescence polarisation	peptide	pH 7.5, NaCl 150 mM	Kd	59 ± 6 µM
ART[Lys(Me3)]QTARKSTGGAAPAA (Lys(Me3) = C[N+](C)(C)CCCC[C@H](N)C(=O)O; sequence looked up)	Lysine-specific demethylase 5A, residues 1-797 (KDM5A, Homo sapiens, UniProt P29375)	demethylation, substrate	peptide	mean of two experiments	kcat	0.108 ± 0.007 s⁻¹
SGAGEAEERVVVIDDDEDDDAENSSSRY (PML 547-573 S560D/S561D/S562D/S565D (Homo sapiens, UniProt P29590))	SUMO2 2-93 C48A (Homo sapiens, UniProt P61956)	ITC	peptide	pH 7.4, 25 °C	Kd	5.3 ± 1 µM
QATFMVFQALAQYQKDAP (C3 1270-1287 (Homo sapiens); N- and C-terminal capped)	HLA-DRA/HLA-DRB1*04:01 (Homo sapiens)	competition with ligand, ELISA	peptide		IC50	9.64 µM
Z13e1 Fab (human)	env peptide residues 668-683 (HIV-1)	ITC		298 K, single-site model	ΔH	-12.7 kcal/mol
B3 (traR 1-73)	rpoB β subunit 1-1342 (Escherichia coli, UniProt P0A8V2)	crystal structure		without ppGpp	binding	binds

A few entries again:
Molecule	target or system	assay	test system	setting	measurement	result
B1 (acrA)	acrB C493S/C887S/S1043C (Escherichia coli, UniProt P31224)	SPR		two-state model, forward second step	k2	0.0121 M⁻¹ s⁻¹
